Published values collected from several papers.
Parts stem from different laboratories: compare values within a part only.
UniProt Q8NEB9, sequence (whole entry, looked up): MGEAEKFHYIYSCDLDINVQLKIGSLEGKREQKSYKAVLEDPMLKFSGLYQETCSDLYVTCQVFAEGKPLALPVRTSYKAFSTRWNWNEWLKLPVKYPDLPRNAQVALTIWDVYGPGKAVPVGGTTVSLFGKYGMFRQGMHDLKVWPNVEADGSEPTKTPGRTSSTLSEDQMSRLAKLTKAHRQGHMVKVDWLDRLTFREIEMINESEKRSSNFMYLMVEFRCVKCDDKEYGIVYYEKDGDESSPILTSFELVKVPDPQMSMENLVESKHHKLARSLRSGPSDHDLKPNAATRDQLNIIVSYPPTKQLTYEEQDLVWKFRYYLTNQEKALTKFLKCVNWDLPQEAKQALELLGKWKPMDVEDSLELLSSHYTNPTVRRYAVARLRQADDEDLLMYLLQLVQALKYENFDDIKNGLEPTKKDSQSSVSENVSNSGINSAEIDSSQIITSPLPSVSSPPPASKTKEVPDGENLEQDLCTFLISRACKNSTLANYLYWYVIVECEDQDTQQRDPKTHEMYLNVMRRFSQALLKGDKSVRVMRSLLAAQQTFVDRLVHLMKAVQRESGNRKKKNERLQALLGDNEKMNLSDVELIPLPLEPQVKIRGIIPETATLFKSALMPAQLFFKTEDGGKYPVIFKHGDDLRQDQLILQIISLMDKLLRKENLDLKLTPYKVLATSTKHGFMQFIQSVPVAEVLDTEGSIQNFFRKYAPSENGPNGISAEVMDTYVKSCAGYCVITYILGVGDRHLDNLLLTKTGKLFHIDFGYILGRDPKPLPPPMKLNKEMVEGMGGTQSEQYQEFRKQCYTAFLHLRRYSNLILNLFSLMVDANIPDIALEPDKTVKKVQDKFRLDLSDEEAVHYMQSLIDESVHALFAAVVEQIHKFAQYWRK
UniProt P07948, sequence (whole entry, looked up): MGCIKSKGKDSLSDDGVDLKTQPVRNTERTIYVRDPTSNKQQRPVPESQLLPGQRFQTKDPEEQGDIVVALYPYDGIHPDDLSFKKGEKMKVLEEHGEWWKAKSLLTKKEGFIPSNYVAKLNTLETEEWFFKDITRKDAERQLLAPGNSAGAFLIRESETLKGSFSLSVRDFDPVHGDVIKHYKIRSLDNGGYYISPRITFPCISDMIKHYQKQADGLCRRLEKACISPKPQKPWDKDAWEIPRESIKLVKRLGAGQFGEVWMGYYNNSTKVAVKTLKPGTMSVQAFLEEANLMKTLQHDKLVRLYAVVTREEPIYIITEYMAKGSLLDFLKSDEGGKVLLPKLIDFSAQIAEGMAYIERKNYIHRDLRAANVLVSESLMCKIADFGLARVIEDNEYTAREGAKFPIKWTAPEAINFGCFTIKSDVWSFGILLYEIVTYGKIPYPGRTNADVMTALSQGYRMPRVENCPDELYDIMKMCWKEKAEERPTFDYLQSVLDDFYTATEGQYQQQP
UniProt P35626, sequence (whole entry, looked up): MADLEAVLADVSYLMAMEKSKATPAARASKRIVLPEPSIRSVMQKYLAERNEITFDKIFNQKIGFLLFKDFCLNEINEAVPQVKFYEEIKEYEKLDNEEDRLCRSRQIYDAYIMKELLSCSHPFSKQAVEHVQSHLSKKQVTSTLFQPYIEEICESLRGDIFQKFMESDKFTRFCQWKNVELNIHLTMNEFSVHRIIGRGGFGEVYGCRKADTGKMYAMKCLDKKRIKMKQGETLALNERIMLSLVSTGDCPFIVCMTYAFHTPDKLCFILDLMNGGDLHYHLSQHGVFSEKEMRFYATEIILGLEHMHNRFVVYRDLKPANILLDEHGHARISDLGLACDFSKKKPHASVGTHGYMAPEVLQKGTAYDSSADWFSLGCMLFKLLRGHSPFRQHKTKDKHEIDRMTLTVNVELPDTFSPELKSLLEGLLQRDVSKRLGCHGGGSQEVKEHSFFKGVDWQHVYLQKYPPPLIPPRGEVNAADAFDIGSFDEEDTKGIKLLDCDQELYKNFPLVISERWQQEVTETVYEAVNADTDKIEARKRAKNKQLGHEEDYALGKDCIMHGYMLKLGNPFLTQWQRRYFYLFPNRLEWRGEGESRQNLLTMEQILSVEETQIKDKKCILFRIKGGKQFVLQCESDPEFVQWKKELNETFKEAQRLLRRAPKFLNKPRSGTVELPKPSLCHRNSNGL
UniProt Q14164, sequence (whole entry, looked up): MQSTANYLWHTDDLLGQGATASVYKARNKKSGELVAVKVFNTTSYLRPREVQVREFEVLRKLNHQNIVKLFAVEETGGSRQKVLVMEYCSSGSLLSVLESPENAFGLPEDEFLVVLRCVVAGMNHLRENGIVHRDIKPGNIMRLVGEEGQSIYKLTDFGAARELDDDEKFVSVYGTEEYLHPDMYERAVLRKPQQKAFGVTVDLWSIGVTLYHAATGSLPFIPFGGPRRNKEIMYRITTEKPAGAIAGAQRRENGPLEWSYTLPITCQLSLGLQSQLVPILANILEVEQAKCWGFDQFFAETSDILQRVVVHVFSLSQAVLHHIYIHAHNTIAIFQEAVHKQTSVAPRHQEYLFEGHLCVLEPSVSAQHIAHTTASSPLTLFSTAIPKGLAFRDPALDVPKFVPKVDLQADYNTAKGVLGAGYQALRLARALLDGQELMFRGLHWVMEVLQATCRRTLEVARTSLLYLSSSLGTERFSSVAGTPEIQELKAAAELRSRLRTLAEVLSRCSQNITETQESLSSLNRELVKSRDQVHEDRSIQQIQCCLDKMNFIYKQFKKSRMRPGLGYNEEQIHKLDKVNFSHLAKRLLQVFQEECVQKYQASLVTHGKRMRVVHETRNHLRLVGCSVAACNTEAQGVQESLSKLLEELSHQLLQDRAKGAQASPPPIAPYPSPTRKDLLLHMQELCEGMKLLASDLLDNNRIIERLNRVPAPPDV
UniProt P51955, sequence (whole entry, looked up): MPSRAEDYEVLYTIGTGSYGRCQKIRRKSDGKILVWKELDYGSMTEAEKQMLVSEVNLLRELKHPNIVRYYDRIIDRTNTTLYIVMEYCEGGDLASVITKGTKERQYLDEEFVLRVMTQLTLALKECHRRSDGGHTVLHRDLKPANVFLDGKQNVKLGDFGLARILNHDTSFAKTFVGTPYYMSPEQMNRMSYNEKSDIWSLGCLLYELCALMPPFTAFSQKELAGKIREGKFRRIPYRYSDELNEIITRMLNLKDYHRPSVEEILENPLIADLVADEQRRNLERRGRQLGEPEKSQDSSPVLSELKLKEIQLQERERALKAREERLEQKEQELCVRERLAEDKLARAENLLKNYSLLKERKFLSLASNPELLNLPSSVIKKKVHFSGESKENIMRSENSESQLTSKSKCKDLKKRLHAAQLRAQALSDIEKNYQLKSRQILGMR
UniProt Q13557, sequence (whole entry, looked up): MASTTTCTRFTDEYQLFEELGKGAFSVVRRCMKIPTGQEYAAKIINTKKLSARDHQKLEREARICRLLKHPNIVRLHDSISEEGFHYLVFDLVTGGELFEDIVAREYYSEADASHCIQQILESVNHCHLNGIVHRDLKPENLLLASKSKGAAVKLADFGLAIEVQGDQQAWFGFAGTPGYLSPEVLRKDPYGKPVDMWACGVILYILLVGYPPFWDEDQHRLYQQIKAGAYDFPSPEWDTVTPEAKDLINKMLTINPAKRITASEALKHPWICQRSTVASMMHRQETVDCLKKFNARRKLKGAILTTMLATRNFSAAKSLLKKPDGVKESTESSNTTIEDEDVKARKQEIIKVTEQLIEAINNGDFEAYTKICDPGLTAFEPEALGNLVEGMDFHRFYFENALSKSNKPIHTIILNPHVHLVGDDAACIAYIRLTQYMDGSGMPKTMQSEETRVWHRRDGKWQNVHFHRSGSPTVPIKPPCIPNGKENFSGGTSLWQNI
UniProt P11802, sequence (whole entry, looked up): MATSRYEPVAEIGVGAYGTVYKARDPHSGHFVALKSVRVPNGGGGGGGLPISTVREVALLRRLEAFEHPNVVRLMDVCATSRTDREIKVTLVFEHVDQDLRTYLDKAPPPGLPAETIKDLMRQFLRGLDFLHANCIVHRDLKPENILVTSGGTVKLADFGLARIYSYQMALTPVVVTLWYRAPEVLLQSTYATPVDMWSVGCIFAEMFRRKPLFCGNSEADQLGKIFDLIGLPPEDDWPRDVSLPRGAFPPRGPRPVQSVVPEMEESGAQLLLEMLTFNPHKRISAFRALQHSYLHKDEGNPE
UniProt Q15831, sequence (whole entry, looked up): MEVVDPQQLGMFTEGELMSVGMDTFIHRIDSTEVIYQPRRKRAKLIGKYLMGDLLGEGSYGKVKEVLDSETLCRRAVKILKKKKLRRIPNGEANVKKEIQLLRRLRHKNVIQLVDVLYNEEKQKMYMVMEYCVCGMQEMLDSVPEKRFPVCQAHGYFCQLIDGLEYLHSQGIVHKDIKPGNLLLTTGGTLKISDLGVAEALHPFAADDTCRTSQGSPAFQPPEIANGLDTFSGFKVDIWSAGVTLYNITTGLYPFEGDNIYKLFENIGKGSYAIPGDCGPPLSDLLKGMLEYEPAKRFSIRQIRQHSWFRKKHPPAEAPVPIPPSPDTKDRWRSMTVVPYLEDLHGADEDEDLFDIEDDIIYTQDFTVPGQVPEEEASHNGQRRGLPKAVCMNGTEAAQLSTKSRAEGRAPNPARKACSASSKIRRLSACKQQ

Study 1
Target: Prothrombin, mature alpha-thrombin (F2, Homo sapiens, UniProt P00734)
Method: aptamer microarray, sandwich
Form: DNA with 2'F-ANA
Medium: in vitro
Concentration: 200 nM
Notes: whole 15-mer aptamer, many near background
Added: Cy3 exosite-II aptamer, 400 nM
Direction: higher = stronger binding
Endpoint: mean fluorescence intensity
Strand: GGTTGGTGTGGTTGG
2'F-ANA at 1 2 3 8 10 11 12 15: 85.9 a.u.
2'F-ANA at 2 3 4 8 12 15: 1080 a.u.
2'F-ANA at 1 5 6 11 14 15: 46.5 a.u.
2'F-ANA at 2 3 4 7 10 11 13 15: 218 a.u.
2'F-ANA at 1 2 4 5 6 7 10 11 12 13 15: 50.8 a.u.
2'F-ANA at 2 3 4 5 6 7 8 9 11 12 15: 135 a.u.
2'F-ANA at 1 3 5 6 8: 69.4 a.u.
2'F-ANA at 1 2 3 4 6 8 10 13: 54.3 a.u.

Study 2
Target: Hepatocyte nuclear factor 3-alpha (Foxa1, Mus musculus, UniProt P35582, residues 1-468, full length assumed)
UniProt P35582, sequence (whole entry, looked up): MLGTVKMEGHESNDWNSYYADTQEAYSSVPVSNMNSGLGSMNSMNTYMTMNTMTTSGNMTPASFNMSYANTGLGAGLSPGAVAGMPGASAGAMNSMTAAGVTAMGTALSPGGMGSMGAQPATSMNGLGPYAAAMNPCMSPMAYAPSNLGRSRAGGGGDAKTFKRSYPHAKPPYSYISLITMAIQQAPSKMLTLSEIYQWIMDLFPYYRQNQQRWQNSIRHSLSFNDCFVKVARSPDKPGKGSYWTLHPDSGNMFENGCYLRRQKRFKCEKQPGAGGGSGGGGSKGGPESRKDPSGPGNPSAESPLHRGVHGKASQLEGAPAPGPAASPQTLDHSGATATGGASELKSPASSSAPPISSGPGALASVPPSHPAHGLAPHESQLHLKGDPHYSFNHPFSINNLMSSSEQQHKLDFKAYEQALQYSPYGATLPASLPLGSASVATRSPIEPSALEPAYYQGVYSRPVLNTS
Method: EMSA with sequencing
Form: double-stranded DNA, one strand shown
Medium: in vitro
Concentration: 10 and 20 nM
Notes: whole designed probe, mean of two concentrations, ends assumed
Baseline: negative control set to 0
Direction: higher = stronger binding
Endpoint: normalised bound fraction
All sequences stand within: GTGAGCGGTGCCCATTGATGGGGAAC … TTTCACTGGGATCGTGGGGAC
TCGGCCAGCCTGGCTTCTGCGCCCCGCCAGGAGGTCGCGGAGCGGAGCGCGGCCAGGAAGTGAGCTATGACTCATTCCTCCCCCCACGCTGTTTGTTTATTCATGTCACATTCTCTCCACACACTGGCTCTTCTTTCTTTCGGGAGGAGGGGAGAAAGGAGCGGGAGGGCGGGCGGGCAGGGGAGAGGCAGGC: 0.422 ratio
AAACAGAGAACTGACCTTGTGGGAAATTGATATTCTTTAGGAATGGGAATGTCTAGGCAAATGGACAGAGATTACAAAGAGATGGAGCAATAGGCAATTTAGCAATTTTTTGGCAAACAAGGAGTAGTAAGGACCACGGGTGGCCACCCTCTCCACACATACGCTCACTCTCACCGAGGCATACACTTGCTCA: 0.0739 ratio
ATTAGGCAGATACAGGGACCTGAGACTTAGGTGGTTATTTTCTTCATCTCATCAGTGGGGACCTGGCTTCTTTGACTGCACCTTGATGTGCTTGTTTACACTGTTAGTATTTCCCCTTGTGGATACTGTAGGCTTATTTTATAGCCAGAGTGAGTAGGGGCAGGCTATCTGGCCAGTCGCCACCTCAGATTAT: 0.324 ratio
AAGTATCACAATGATCTTCCATTGCAGAGAAGAAGGAGGAGGGAAGAGACAACATGCATATCATGGAAGGATATGCTTGCCCAAAAACCACAGAGTAAACAAGCACTTACGTTTCATTTGTCAGAATTATGTAGCTTCGTCACTTCCAGCTGAAAGATAGCTGTGTGAAAAGGGTTGTGTTATTTTTTGCAAA: 0.358 ratio
TCATGAAAGGCTTTGCATGCCATTTTAACAAGTACGGGCTTTATCTTAACCCTCTAGGAAACAGGGAGGCACATGAACACCCTAAGTAGGAAAGTAAATAGTTACTTCTAATTTGTGTTTTAGAAAGGTTCTGGAGCAGTCTGGAAGATGTAATGGTTGCTTGTCAGCTCATGAGCTGGTGGGGTTGGCTGCT: 0.21 ratio
CCACCCCCCACCTTATTCTTCCTCTTTAATGAATATTTTTATTGGAGCTCAAACTCCATGACTTACGTGCTCACTAAGTTTTCTTTTTTCCCCTTGTTTACTCTGTCTGTATGTATGTCAAAAGCTGGCAAAACCTCTAAAACTGTCAAGAAAATGCTTGAAAGTTGATTTGTCATAGTGCAAATTCATGATA: 0.302 ratio
ATCTTCCCCCTCTTCCTTGCCCCACCAGCTCACCTTCCCGGGTATATTGGAGATAGGAAATTAATATAAGCCGGCATTCGTTAACCCTCTTCACGCGCATACTGCCAGAGCAAACAGATGAATCATGGTCCTTTGGCGACGCCAGGCTCCGGGAGAGCAAAGCACCGTGTCAGGGCCATGATCCGGGGTGGCC: 0.148 ratio
TTTATCACAGGACAATGAATATATACCTCAAAATAAAAGATGTAGAATACTGTATTTACATAATTTGGTTAAACAAAACAATACATGACTATGTAAACACGGCTGAGCAGCACATACCTCCTAGTGCTTTTTTTTAAATGTCAAACAGTCATAATTTTTAATCTCCTTTCTTGAGGGTGTCAAAAAAATCTTT: 0.485 ratio

Study 3
Target: Sal-like protein 4, full length isoform B (SALL4, Homo sapiens, UniProt Q9UJQ4-2, residues 1-616)
Method: universal PBM
Form: double-stranded DNA, one strand shown
Medium: in vitro
Concentration: not given
Notes: 8-mer, flanks averaged, mean of replicates
Direction: higher = stronger binding
Endpoint: E-score
Residues (chain): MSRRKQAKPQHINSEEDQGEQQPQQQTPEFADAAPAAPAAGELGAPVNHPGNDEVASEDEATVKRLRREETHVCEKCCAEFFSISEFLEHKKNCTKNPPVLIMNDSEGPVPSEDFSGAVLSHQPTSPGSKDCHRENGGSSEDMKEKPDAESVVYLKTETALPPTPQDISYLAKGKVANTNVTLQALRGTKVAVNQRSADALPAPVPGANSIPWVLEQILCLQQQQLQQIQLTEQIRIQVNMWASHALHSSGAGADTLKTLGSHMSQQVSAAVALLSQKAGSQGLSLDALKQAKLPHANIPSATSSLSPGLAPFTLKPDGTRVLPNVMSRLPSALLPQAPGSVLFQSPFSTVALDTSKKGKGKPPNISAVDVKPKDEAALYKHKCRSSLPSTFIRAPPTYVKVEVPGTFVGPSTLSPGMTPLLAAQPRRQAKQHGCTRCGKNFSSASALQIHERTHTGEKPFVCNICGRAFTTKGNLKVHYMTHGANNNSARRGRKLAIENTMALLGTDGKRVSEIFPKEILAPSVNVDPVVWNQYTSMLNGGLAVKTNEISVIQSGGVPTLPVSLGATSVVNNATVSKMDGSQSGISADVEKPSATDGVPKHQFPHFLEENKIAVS
TTCCTAAA: 0.173
GGCTTAAA: 0.039
ACCGCTTG: -0.152
CCGGTCCA: -0.435
AACGTGCT: -0.0753
ACTGTTGG: -0.0152
AACACTCT: 0.085
CCCAGGTA: -0.0641

Study 4
Compound: C[C@H](c1ccc(F)cc1)N(Cc1cccc(C(=O)O)c1)C(=O)c1cnc2ccccc2c1
Read-out: cell-free assay
Method: competition with immobilised ligand
Concentration: 1 µM
Endpoint: remaining binding
CDK14 (Homo sapiens, UniProt O94921): 100%
RIOK3 (Homo sapiens, UniProt O14730): 86%
PIK3C3 (Homo sapiens, UniProt Q8NEB9): 100%
IRAK3 (Homo sapiens, UniProt Q9Y616): 100%

Study 5
SMILES: O=C1Nc2ccc(Br)cc2/C1=C/c1cc2c([nH]1)CCCC2
Read-out: enzyme activity
Action: inhibitor
Concentration: 0.5 µM
Baseline: control
Endpoint: remaining activity
MAPK9 (Homo sapiens, UniProt P45984): 99.4%
DAPK1 (Homo sapiens, UniProt P53355): 111%
Cyclin-dependent kinase 4, with cyclin D1 (CDK4, Homo sapiens, UniProt P11802): 97.9%
DAPK2 (Homo sapiens, UniProt Q9UIK4): 102%
IKBKB (Homo sapiens, UniProt O14920): 102%
STK11 (Homo sapiens, UniProt Q15831): 88.7%
cGMP-dependent protein kinase 1, isoform beta (PRKG1, Homo sapiens, UniProt Q13976): 87.9%
Tyrosine-protein kinase Lyn, isoform B (LYN, Homo sapiens, UniProt P07948): 86.8%
Protein kinase C beta type, isoform beta-I (PRKCB, Homo sapiens, UniProt P05771): 97.4%
MAP3K3 (Homo sapiens, UniProt Q99759): 88.5%
GRK3 (Homo sapiens, UniProt P35626): 89.9%
TGFBR1 (Homo sapiens, UniProt P36897): 100%
PRKACA (Homo sapiens, UniProt P17612): 96.5%
OXSR1 (Homo sapiens, UniProt O95747): 96.7%
CHEK2 (Homo sapiens, UniProt O96017): 68.2%
IKBKE (Homo sapiens, UniProt Q14164): 89.5%
TGFBR2 (Homo sapiens, UniProt P37173): 101%
STK10 (Homo sapiens, UniProt O94804): 65.5%
CAMK2D (Homo sapiens, UniProt Q13557): 84.2%
CAMKK2 (Homo sapiens, UniProt Q96RR4): 68.1%
STK39 (Homo sapiens, UniProt Q9UEW8): 86%
NEK2 (Homo sapiens, UniProt P51955): 87.9%
Cyclin-dependent kinase 5, with p25 (CDK5, Homo sapiens, UniProt Q00535): 91.3%
PRKCA (Homo sapiens, UniProt P17252): 102%

Excerpt of the above (study 5):
DAPK2 (Homo sapiens, UniProt Q9UIK4): 102%
PRKCA (Homo sapiens, UniProt P17252): 102%
STK11 (Homo sapiens, UniProt Q15831): 88.7%
Tyrosine-protein kinase Lyn, isoform B (LYN, Homo sapiens, UniProt P07948): 86.8%
